Measured values of several laboratories.
Each line is one published result; not all experiments were run side by side.
Chain of UniProt Q9NX63 (whole entry, looked up): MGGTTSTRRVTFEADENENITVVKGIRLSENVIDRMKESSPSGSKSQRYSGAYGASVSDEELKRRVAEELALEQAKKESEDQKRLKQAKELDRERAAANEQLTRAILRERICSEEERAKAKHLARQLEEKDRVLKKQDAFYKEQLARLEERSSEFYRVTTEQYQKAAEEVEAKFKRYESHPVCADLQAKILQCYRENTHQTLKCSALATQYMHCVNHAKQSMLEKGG

Compound	target or system	test	test system	setting	how to read	measurement	result
COc1c(CCC[P+](c2ccccc2)(c2ccccc2)c2ccccc2)cc2c(c1OC)OCO2.[I-]	ACHN	SRB	–	–	–	TGI	-4.53 log M
C[C@H]1CN(c2n[nH]c3nc(N[C@H]4CC[C@H](NS(=O)(=O)CCC(F)(F)F)CC4)ncc23)CCO1	MICOS complex subunit MIC19 (Homo sapiens, UniProt Q9NX63)	Kinobeads competition, measured: CHCHD3	–	20 µM, unit not given	relative to: vehicle	remaining binding	1.22
CCCCCCCCCC(=O)N[C@@H](Cc1c[nH]c2ccccc12)C(=O)N[C@H](CC(N)=O)C(=O)N[C@@H](CC(=O)O)C(=O)N[C@@H]1C(=O)NCC(=O)N[C@@H](CCCN)C(=O)N[C@@H](CC(=O)O)C(=O)N[C@H](C)C(=O)N[C@@H](CC(=O)O)C(=O)NCC(=O)N[C@H](CO)C(=O)N[C@@H]([C@H](C)CC(=O)O)C(=O)N[C@@H](CC(=O)c2ccccc2N)C(=O)O[C@@H]1C	Streptococcus pyogenes	broth microdilution	sensitive clinical isolate	overnight, 37 °C	–	MIC	8 µg/mL
C[C@@H](O)[C@H](NC(=O)[C@H](Cc1ccccc1)NC(=O)[C@H](Cc1c[nH]c2ccccc12)NC(=O)[C@H](Cc1ccccc1)NC(=O)[C@@H](NC(=O)[C@H](Cc1ccccc1)NC(=O)[C@H](CCCNC(=N)N)NC(=O)[C@@H](N)CCCNC(=N)N)[C@@H](C)O)C(=O)N[C@@H](Cc1ccccc1)C(=O)N[C@@H](CCCNC(=N)N)C(=O)N[C@@H](CCCNC(=N)N)C(N)=O	Lacticaseibacillus rhamnosus	–	1.038, probiotic strain	24 h, 37 °C, tested up to 128 µM	–	MIC	8 µM
CC[C@H](C)[C@@H]1NC(=O)[C@@H]2CCCN2C(=O)[C@H](CC(C)C)NC(=O)[C@H](CC(C)C)NC(=O)CNC(=O)[C@@H](NC(=O)[C@@H](NC(=O)[C@H](CC(=O)O)NC(=O)CNC(=O)[C@@H](NC(=O)[C@H](C)NC(=O)CNC(=O)[C@H](CCCCN)NC(=O)[C@H](CC(C)C)NC(=O)[C@H](CC(C)C)NC(=O)[C@H](CCCCN)NC(=O)CNC(=O)[C@@H](NC(=O)[C@@H](N)CC(C)C)C(C)C)C(C)C)C(C)C)CSSC[C@@H](C(=O)O)NC1=O	–	RNA-seq, measured: Cd69 mRNA	mouse traumatic brain injury, frontal cortex and hippocampus	dose not given	relative to: TBI plus compound vs TBI	log2 fold change	-3.47
C[C@H](NC(=O)[C@H](CCCNC(=N)N)NC(=O)[C@H](Cc1c[nH]c2ccccc12)NC(=O)[C@H](CCCNC(=N)N)NC(=O)[C@H](Cc1c[nH]c2ccccc12)NC(=O)[C@H](Cc1c[nH]c2ccccc12)NC(=O)[C@H](Cc1c[nH]c2ccccc12)NC(=O)[C@H](CCCNC(=N)N)NC(=O)[C@H](Cc1c[nH]c2ccccc12)NC(=O)[C@H](CCCNC(=N)N)NC(=O)CN)C(N)=O	Candida albicans	broth microdilution	CGMCC 2.209, RPMI 1640-MOPS	48 h, 30 °C, with: KCl 4.5 mM	–	MIC	4 µM
N=C(N)c1ccc(OCCCCCOc2ccc(C(=N)N)cc2)cc1	Escherichia coli	–	mcr-1	20 h, in combination, checkerboard, with: rifampicin	–	MIC	50 µg/mL
CC1(C)SC2C(NC(=O)C(NC(=O)C3=C(O)C(Cc4ccc(F)cc4)NC3=O)c3ccccc3)C(=O)N2C1C(=O)O (stereo not drawn)	Escherichia coli	broth microdilution	isolate IU, CTX-M-14, TEM-1	with: clavulanic acid 6 µg/mL	–	MIC	100 µg/mL
COc1cc(CCC[P+](c2ccccc2)(c2ccccc2)c2ccccc2)c(OC)c2c1OCO2.[I-]	COLO 205	SRB	–	–	–	TGI	-5.47 log M
CC(C)(C)Oc1ccc(CC2NC(=O)C(C(=O)NC(C(=O)NC3C(=O)N4C3SC(C)(C)C4C(=O)O)c3ccccc3)=C2O)cc1 (stereo not drawn)	Escherichia coli	broth microdilution	ATCC 35218, low-level TEM-1	no clavulanic acid	–	MIC	> 200 µg/mL
Fc1ccc(COc2cccc(CNCc3ccccc3)c2)cc1	nontuberculous mycobacteria	–	–	range over strains	–	MIC	7.8 to 31.3 µM
N=C(N)NCCC[C@H](NC(=O)CCCCCNC(=O)[C@H](CCCNC(=N)N)NC(=O)[C@H](CCCNC(=N)N)NC(=O)CCCCCNC(=O)[C@H](CCCNC(=N)N)NC(=O)[C@H](CCCNC(=N)N)NC(=O)CCCCCNC(=O)[C@H](CCCNC(=N)N)NC(=O)[C@H](CCCNC(=N)N)NC(=O)CCCCCNC(=O)[C@@H](N)CCCNC(=N)N)C(=O)NCCCCCC(=O)NCCC(=O)O	Escherichia coli	broth microdilution	ATCC 25922, Mueller-Hinton broth	with: MgCl2 20 mM	–	MIC	> 192 µM
CC1(C)S[C@@H]2[C@H](NC(=O)[C@H](N)c3ccccc3)C(=O)N2[C@H]1C(=O)O	Escherichia coli	broth microdilution	ATCC 35218, low-level TEM-1	no clavulanic acid	–	MIC	> 200 µg/mL
COc1cc(Nc2ncc(F)c(Nc3ccc4c(n3)NC(=O)C(C)(C)O4)n2)cc(OC)c1OC	Caspase-3 (CASP3, Homo sapiens, UniProt P42574)	–	–	–	–	IC50	> 10 µM
CC(C)C[C@H](NC(=O)[C@H](C)NC(=O)[C@@H](NC(=O)[C@H](C)NC(=O)[C@H](CC(C)C)NC(=O)[C@H](Cc1c[nH]c2ccccc12)NC(=O)[C@@H]1CCCN1C(=O)[C@H](C)N)C(C)C)C(=O)N[C@@H](CS)C(=O)N1CCC[C@H]1C(=O)NCC(=O)O	Staphylococcus cohnii	broth microdilution	L5	18 h, 37 °C	–	MIC	> 512 µM
N=C(N)NCCC[C@H](NC(=O)CN)C(=O)N[C@@H](Cc1c[nH]c2ccccc12)C(=O)N[C@@H](CCCNC(=N)N)C(=O)N[C@@H](Cc1c[nH]c2ccccc12)C(=O)N[C@@H](Cc1c[nH]c2ccccc12)C(=O)N[C@@H](Cc1c[nH]c2ccccc12)C(=O)N[C@@H](CCCNC(=N)N)C(=O)N[C@@H](Cc1c[nH]c2ccccc12)C(=O)N[C@@H](CCCNC(=N)N)C(=O)N[C@@H](Cc1ccccc1)C(N)=O	Candida albicans	broth microdilution	56214, RPMI 1640-MOPS	48 h, 30 °C	–	MIC	8 µM
Nc1ncnc2c1ncn2[C@@H]1O[C@@H]2COP(=O)(O)O[C@H]3[C@@H](O)[C@H](n4cnc5c(=O)[nH]cnc54)O[C@@H]3COP(=O)(O)O[C@H]2[C@H]1O	Zika virus	upregulated Reactome pathway, RNA sequencing, measured: GPCR ligand binding (R-HSA-500792)	HFF-1	–	relative to: ZIKV-infected untreated	fold enrichment	2.62
CC[C@H](C)[C@H](NC(=O)[C@H](CCCNC(=N)N)NC(=O)[C@H](Cc1c[nH]c2ccccc12)NC(=O)[C@H](CCCNC(=N)N)NC(=O)[C@H](Cc1c[nH]c2ccccc12)NC(=O)[C@H](Cc1c[nH]c2ccccc12)NC(=O)[C@H](Cc1c[nH]c2ccccc12)NC(=O)[C@H](CCCNC(=N)N)NC(=O)[C@H](Cc1c[nH]c2ccccc12)NC(=O)[C@@H](N)CCCNC(=N)N)C(N)=O	Candida albicans	broth microdilution	CGMCC 2.209, RPMI 1640-MOPS	48 h, 30 °C, with: NH4Cl 6 µM	–	MIC	16 µM
CC[C@H](C)[C@H](NC(=O)[C@H](Cc1ccccc1)NC(=O)[C@H](CCC(=O)O)NC(=O)[C@H](CCCNC(=N)N)NC(=O)[C@H](C)NC(=O)[C@H](C)NC(=O)[C@H](CCC(N)=O)NC(=O)[C@H](CCC(=O)O)NC(=O)[C@H](CCC(=O)O)NC(=O)[C@H](CC(C)C)NC(=O)[C@H](Cc1ccc(O)cc1)NC(=O)[C@H](CO)NC(=O)[C@H](CO)NC(=O)[C@@H](NC(=O)[C@H](CC(=O)O)NC(=O)[C@H](CO)NC(=O)[C@@H](NC(=O)[C@H](Cc1ccccc1)NC(=O)[C@@H](NC(=O)CNC(=O)[C@H](CCC(=O)O)NC(=O)[C@H](C)NC(=O)CCc1c[nH]cn1)[C@@H](C)O)[C@@H](C)O)C(C)C)C(=O)N[C@@H](C)C(=O)N[C@@H](Cc1c[nH]c2ccccc12)C(=O)N[C@@H](CC(C)C)C(=O)N[C@H](C(=O)N[C@@H](CCCNC(=N)N)C(=O)NCC(=O)N[C@@H](CCCNC(=N)N)C(=O)N[C@@H](CCCCNC(=O)COCCOCCNC(=O)COCCOCCNC(=O)CC[C@H](NC(=O)CCCCCCCCCCCCCCCCC(=O)O)C(=O)O)C(=O)NCC(=O)NCC(=O)N[C@@H](CO)C(=O)N[C@@H](CCCCNc1c(NCCCCCN(O)C(=O)CCC(=O)NCCCCCN(O)C(=O)CCC(=O)NCCCCCN(O)C(C)=O)c(=O)c1=O)C(=O)O)C(C)C [zirconium-89 labelled]	–	–	rat, duodenum	sc, 3 nmol/kg, 24 h, ex vivo	–	tissue uptake	0.18 %ID/g
CC1(C)SC2C(NC(=O)C(NC(=O)C3=C(O)C4(CC4)NC3=O)c3ccccc3)C(=O)N2C1C(=O)O (stereo not drawn)	Escherichia coli	broth microdilution	Keio mutant JW2142-1	–	–	MIC	50 µg/mL
N=C(N)NCCC[C@H](NC(=O)[C@H](Cc1c[nH]c2ccccc12)NC(=O)[C@H](CCCNC(=N)N)NC(=O)[C@H](Cc1c[nH]c2ccccc12)NC(=O)[C@H](Cc1c[nH]c2ccccc12)NC(=O)[C@H](Cc1c[nH]c2ccccc12)NC(=O)[C@H](CCCNC(=N)N)NC(=O)[C@H](Cc1c[nH]c2ccccc12)NC(=O)[C@H](CCCNC(=N)N)NC(=O)CN)C(N)=O	Candida albicans	broth microdilution	CGMCC 2.209, RPMI 1640-MOPS	48 h, 30 °C, with: FeCl3 4 µM	–	MIC	4 µM
C[C@@H](O)[C@@H](CO)NC(=O)[C@@H](CCCNC(=N)N)NC(=O)[C@@H]1CCCN1C(=O)[C@@H]1CSSC[C@H](NC(=O)[C@H](Cc2ccccc2)NC(=O)CN2CCN(CC(=O)O)CCN(CC(=O)O)CCN(CC(=O)O)CC2)C(=O)N[C@@H](Cc2ccc(O)cc2)C(=O)N[C@@H](Cc2ccccc2)C(=O)N[C@@H](CCC(N)=O)C(=O)N[C@@H](CC(N)=O)C(=O)N1 [gallium-68 labelled]	–	–	healthy Wistar rat, kidneys	intravenous, 8 MBq, 30 min, individual animals	–	tissue uptake	7.37 %ID/g
CC1(C)SC2C(NC(=O)C(NC(=O)C3=C(O)C(Cc4ccsc4)NC3=O)c3ccccc3)C(=O)N2C1C(=O)O (stereo not drawn)	Escherichia coli	broth microdilution	Keio mutant JW0587-1	18 h, enterobactin-related gene	–	MIC	25 µg/mL
N=C(N)NCCC[C@H](NC(=O)[C@H](Cc1c[nH]c2ccccc12)NC(=O)[C@H](CCCNC(=N)N)NC(=O)[C@H](Cc1c[nH]c2ccccc12)NC(=O)[C@H](Cc1c[nH]c2ccccc12)NC(=O)[C@H](Cc1c[nH]c2ccccc12)NC(=O)[C@H](CCCNC(=N)N)NC(=O)[C@H](Cc1c[nH]c2ccccc12)NC(=O)[C@@H](N)CCCNC(=N)N)C(=O)N[C@@H](Cc1ccccc1)C(N)=O	Candida albicans	broth microdilution	SP3902, RPMI 1640-MOPS	48 h, 30 °C	–	MIC	8 µM
